Earlier results, collected from citations in different studies.
Each line is one published result; not all experiments were run side by side. Numbers after ± are the reported error.
UniProt P42336, sequence (whole entry, looked up): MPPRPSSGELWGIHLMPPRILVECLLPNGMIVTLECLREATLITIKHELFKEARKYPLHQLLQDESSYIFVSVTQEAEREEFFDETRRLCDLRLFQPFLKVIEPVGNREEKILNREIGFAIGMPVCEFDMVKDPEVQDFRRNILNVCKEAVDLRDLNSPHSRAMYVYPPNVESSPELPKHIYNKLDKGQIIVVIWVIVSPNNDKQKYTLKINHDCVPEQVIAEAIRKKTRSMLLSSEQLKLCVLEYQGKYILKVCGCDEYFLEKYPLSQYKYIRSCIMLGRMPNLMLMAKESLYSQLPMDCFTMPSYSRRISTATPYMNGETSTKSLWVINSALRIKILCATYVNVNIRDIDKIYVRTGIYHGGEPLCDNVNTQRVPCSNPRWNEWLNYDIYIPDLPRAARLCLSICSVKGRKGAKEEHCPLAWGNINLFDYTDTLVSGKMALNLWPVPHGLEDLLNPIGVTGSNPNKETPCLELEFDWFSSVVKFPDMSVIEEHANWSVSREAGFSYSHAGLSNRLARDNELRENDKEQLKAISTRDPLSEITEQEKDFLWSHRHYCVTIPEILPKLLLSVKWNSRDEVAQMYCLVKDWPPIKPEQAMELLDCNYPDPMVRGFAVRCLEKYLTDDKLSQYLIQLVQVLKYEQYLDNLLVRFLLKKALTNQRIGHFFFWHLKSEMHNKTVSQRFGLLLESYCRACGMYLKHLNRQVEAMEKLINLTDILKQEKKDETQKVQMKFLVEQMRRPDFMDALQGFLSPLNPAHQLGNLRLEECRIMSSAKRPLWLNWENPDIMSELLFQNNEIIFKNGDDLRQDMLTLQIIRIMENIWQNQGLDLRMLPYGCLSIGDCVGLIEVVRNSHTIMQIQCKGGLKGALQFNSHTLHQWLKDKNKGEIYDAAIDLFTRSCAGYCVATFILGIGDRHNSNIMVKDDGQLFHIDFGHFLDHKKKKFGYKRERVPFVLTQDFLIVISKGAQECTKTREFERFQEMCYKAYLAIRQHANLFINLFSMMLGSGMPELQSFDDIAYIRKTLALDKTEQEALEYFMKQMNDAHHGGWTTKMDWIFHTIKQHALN

CNC(=O)[C@H](Cc1c[nH]c2ccccc12)NC(=O)[C@@H](CC(=O)NO)CC(C)C — IC50 (ADAM9; inhibitor): 0.001 µM
Nc1ncc(-c2nc(N3CCOCC3)nc(N3CCOCC3)n2)c(C(F)F)n1 — remaining binding (PIK3CA (Homo sapiens, UniProt P42336); KinomeScan competition binding; 10 µM): 0%
Cc1cc2c(C(N)=O)cccc2n1-c1nc2c(c(NCc3ccccc3)n1)COCC2 — IC50 (p97 (VCP); inhibitor; concentration not given): 0.011 µM
Cc1ccncc1NC(=O)Cc1cc(Cl)cc(NS(N)(=O)=O)c1 — inhibition (main protease (Mpro); 50 µM): 87.9%
c1c[nH]cn1 — association rate constant (metmyoglobin): 160 M⁻¹ s⁻¹
CC(C)(O/N=C(\C(=O)N[C@@H]1C(=O)N2C(C(=O)[O-])=C(C[N+]3(CCNC(=O)c4ccc(O)c(O)c4Cl)CCCC3)CS[C@H]12)c1csc(N)n1)C(=O)O — kcat (KPC-2; hydrolysis by enzyme, substrate): > 0.03 s⁻¹
O=C(Nc1nncn1C1CC1)[C@@H]1CCOc2ccccc21 — inhibition (main protease (Mpro); 50 µM): 2.15%
N#CCNC(=O)c1ccc(-c2ccnc(Nc3ccc(N4CCOCC4=O)cc3)n2)cc1 — relative potency (JAK1/2 and ACVR1; relative to: momelotinib): ~0.4
CCCCCOc1ccc(-c2ccc(-c3ccc(C(=O)N[C@H]4C[C@@H](O)[C@@H](O)NC(=O)[C@@H]5[C@@H](O)[C@@H](C)CN5C(=O)[C@H]([C@@H](C)O)NC(=O)[C@H]([C@H](O)[C@@H](O)c5ccc(O)cc5)NC(=O)[C@@H]5C[C@@H](O)CN5C(=O)[C@H]([C@@H](C)O)NC4=O)cc3)cc2)cc1 — mean clearance (ICU patients; 200/100 mg): 1.3 L/h
COC(=O)[C@@H]1C[C@H](OC(C)=O)C(=O)[C@H]2[C@@]1(C)CC[C@H]1C(=O)O[C@H](c3ccoc3)C[C@]21C — Ki (kappa opioid receptor M112L): 0.0735 ± 0.0208 µM
CCCCCCCCCCC[C@@H](C[C@@H]1OC(=O)[C@H]1CCCCCC)OC(=O)[C@H](CC(C)C)NC=O — IC50 (ABHD12; inhibitor): 0.08 µM
CCC[C@@H](C(=O)Nc1cnccc1C)c1cccc(Cl)c1 — inhibition (main protease (Mpro); 20 µM): 77.9%

For quick reference, copied from above:
O=C(Nc1nncn1C1CC1)[C@@H]1CCOc2ccccc21 — inhibition (main protease (Mpro); 50 µM): 2.15%
N#CCNC(=O)c1ccc(-c2ccnc(Nc3ccc(N4CCOCC4=O)cc3)n2)cc1 — relative potency (JAK1/2 and ACVR1; relative to: momelotinib): ~0.4
